Published values gathered from unrelated publications.
± marks the error that the study gave.

The chains behind the UniProt entries cited, without tags or fusion partners. Residues count along the entry.
UniProt P28074, whole entry, looked up: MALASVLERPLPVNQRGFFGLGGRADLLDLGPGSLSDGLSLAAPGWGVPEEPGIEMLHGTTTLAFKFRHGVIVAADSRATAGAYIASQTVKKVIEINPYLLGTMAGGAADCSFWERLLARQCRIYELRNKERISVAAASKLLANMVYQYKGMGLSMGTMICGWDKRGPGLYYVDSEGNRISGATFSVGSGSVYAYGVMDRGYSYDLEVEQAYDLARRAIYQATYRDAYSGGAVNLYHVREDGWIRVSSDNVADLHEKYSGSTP
UniProt Q13705, whole entry, looked up: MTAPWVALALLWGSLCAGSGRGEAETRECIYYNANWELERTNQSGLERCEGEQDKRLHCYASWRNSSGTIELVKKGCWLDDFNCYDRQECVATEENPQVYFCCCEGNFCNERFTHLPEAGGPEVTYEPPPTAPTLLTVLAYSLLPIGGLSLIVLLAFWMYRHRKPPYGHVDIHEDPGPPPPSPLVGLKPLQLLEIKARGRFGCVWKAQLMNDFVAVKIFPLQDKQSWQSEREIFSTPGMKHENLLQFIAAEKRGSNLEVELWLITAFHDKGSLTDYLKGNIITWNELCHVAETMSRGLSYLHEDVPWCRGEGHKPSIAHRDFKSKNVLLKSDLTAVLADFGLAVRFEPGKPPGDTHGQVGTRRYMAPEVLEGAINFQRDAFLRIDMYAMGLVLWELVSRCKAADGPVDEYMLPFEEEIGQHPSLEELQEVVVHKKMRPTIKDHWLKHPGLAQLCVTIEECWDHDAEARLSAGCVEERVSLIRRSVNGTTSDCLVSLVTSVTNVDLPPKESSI
UniProt Q00961, whole entry, looked up: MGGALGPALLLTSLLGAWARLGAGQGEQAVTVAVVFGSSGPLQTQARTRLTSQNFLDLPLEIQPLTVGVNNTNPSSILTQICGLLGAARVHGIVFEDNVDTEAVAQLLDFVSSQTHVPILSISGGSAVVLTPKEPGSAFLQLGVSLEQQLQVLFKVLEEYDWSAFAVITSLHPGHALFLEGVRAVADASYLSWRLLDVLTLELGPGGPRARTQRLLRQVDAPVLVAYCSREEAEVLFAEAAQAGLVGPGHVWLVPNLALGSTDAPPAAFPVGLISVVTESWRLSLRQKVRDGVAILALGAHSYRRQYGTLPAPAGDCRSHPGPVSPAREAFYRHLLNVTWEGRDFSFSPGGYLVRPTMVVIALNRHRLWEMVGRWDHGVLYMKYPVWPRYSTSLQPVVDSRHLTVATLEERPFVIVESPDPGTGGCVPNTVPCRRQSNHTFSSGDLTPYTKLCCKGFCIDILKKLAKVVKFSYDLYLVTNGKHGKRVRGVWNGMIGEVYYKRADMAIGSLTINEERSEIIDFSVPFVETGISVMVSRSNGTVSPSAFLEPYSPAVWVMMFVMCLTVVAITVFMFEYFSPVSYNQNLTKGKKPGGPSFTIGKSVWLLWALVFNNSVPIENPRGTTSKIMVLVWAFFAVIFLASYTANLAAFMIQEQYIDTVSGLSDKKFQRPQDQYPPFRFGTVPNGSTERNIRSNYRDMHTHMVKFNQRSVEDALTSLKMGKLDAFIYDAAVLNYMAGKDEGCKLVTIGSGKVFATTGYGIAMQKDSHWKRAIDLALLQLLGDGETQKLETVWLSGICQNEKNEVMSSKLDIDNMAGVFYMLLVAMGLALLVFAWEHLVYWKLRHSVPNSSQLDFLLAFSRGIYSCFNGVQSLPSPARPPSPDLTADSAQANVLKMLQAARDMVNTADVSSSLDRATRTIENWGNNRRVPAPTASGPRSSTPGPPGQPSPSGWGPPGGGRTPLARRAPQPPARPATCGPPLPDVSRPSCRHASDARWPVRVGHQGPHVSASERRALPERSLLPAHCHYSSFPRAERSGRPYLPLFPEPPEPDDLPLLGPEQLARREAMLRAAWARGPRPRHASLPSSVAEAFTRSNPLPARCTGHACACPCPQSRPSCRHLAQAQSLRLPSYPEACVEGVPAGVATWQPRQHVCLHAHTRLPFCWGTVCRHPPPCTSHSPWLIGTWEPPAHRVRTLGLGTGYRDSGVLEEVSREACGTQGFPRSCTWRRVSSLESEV
UniProt P08913, whole entry: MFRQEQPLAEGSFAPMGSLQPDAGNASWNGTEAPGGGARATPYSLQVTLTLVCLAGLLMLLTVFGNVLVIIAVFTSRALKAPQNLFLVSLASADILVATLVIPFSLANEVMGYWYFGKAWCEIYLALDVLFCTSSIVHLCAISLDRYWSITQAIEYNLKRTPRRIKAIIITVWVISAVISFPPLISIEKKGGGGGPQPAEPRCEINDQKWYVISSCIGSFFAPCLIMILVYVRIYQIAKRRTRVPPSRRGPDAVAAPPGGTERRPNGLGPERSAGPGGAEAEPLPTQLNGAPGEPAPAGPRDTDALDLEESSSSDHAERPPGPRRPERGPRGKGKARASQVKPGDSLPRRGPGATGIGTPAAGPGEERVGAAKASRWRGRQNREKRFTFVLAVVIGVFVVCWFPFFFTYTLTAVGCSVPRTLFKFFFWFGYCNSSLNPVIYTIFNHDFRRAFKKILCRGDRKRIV
UniProt O43175, whole entry R135A: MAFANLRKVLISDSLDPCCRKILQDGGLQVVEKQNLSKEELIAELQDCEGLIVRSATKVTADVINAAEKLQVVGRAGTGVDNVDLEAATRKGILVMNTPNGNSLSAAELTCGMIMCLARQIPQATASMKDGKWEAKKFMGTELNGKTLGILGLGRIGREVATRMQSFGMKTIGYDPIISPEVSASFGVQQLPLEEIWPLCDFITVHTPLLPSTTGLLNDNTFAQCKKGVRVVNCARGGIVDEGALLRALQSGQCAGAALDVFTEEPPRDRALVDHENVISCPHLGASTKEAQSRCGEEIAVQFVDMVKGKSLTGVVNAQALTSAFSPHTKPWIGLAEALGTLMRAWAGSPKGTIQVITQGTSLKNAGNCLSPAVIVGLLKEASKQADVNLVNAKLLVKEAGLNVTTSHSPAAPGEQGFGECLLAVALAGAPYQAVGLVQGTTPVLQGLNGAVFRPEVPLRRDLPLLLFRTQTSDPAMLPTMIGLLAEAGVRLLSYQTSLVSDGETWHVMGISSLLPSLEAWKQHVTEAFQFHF
UniProt P28482, whole entry: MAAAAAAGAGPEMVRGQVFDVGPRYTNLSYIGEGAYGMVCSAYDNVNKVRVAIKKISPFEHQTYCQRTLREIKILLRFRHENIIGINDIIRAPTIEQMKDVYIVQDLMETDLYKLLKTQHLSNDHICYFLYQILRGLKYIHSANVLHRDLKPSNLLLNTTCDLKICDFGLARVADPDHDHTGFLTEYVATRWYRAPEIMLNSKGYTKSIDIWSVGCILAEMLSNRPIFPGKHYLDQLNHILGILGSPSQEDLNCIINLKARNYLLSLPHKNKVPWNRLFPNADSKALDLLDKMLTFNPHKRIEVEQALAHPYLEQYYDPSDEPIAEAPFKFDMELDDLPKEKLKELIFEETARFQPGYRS
UniProt Q01959, whole entry: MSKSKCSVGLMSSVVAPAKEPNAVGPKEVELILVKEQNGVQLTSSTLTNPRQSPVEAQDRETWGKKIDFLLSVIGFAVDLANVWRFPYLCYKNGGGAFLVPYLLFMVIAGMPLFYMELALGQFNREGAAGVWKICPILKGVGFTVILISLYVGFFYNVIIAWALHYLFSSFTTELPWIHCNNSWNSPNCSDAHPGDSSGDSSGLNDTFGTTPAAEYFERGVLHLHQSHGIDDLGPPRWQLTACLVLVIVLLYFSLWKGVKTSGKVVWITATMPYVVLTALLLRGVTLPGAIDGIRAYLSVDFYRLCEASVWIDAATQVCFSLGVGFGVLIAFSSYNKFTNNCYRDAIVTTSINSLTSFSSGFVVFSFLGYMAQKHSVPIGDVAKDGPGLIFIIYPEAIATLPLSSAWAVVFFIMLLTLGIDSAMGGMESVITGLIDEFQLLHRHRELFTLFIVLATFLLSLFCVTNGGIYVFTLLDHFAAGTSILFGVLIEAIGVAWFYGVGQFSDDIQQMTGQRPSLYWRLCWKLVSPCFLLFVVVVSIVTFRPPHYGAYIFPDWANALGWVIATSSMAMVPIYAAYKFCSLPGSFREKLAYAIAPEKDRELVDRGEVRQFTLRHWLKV
UniProt P14867, 28-456 limits assumed: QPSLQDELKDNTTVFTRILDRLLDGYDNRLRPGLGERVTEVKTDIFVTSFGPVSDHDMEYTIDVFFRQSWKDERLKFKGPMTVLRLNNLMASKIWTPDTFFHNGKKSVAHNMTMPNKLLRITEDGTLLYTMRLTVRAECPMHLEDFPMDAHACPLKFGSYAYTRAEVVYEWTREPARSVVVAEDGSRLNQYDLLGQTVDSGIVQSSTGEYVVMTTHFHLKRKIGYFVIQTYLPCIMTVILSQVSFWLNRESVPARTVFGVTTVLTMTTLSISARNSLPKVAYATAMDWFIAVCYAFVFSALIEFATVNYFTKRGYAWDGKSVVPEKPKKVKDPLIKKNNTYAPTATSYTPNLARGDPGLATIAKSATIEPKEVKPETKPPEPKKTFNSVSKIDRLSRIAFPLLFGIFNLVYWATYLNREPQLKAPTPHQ
UniProt P18507, 40-475 limits assumed: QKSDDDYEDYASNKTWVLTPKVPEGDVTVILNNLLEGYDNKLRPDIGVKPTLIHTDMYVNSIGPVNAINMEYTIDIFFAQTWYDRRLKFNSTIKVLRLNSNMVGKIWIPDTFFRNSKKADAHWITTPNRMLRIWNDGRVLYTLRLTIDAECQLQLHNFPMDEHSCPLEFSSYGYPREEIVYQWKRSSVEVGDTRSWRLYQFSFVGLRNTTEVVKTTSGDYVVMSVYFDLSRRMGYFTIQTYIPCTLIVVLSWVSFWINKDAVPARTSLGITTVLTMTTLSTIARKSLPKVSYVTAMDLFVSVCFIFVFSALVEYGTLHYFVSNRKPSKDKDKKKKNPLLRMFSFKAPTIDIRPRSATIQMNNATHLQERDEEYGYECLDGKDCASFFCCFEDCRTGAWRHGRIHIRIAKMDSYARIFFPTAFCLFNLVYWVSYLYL
UniProt P47870, 25-512 limits assumed: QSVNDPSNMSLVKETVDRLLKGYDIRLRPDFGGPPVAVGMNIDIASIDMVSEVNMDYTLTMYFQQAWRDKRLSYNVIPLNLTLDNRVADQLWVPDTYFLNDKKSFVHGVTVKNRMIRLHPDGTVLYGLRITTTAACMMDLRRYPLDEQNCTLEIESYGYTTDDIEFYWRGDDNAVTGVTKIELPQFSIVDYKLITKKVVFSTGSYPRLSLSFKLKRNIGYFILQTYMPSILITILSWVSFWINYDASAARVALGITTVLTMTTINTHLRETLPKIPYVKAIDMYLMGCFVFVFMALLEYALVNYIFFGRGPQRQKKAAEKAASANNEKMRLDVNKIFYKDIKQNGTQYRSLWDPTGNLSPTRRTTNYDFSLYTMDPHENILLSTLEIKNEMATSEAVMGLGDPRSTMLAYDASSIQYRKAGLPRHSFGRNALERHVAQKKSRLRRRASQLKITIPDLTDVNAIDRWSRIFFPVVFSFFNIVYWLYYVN
UniProt P06276, whole entry, looked up: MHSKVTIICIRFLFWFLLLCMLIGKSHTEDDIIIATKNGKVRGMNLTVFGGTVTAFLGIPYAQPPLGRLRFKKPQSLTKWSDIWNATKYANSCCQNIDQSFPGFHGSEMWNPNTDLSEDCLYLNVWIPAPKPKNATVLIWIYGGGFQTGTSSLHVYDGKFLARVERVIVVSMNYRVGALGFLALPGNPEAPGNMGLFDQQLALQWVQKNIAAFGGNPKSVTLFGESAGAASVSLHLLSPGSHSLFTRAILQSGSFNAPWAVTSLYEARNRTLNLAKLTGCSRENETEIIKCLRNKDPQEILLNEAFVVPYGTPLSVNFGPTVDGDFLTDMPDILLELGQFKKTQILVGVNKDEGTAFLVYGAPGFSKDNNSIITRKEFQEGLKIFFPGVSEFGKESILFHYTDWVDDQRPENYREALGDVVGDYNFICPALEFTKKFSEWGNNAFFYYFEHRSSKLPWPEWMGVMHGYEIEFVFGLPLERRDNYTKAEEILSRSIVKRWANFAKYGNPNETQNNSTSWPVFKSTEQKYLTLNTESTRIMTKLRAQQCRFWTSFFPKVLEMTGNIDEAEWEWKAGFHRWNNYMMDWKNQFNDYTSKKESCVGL

The MIC of `CCCCCCC1c2ccc(O)cc2Oc2cc(O)ccc21` is reported as greater than 373 µg/mL (Shigella flexneri; ATCC 12022; no additive).
For `Cc1cccc(-c2nsc(=O)o2)c1`, the kobs/[I] was 11.3 M⁻¹ s⁻¹ (PSMB5 (Homo sapiens, UniProt P28074); inactivation; human PA28-activated proteasome).
`CCN1CCN(Cc2ccc(NC(=O)c3ccc(C)c(/C=C/c4cnc5[nH]ccc5c4OC)c3)cc2C(F)(F)F)CC1`: “log2 fold change” 0.338 (ACVR2B (Homo sapiens, UniProt Q13705); inhibitor, cell-based kinome screen; 5 µM; reference: no inhibitor).
Under “total amount delivered”, `C[C@H](Cc1ccc(O)c(O)c1)[C@@H](C)Cc1ccc(O)c(O)c1` is recorded as 14.8 ± 2.36 µg (human skin; 3% w/v solution, 8 h, no UV exposure).
With `COc1ccc(OC[C@H]2c3cccn3CC(=O)N2Cc2cccc(F)c2)cc1` the charge transfer was -9.9 ± 10 nA·ms (Glutamate receptor ionotropic, NMDA 2C, with GluN1 (Rattus norvegicus, UniProt Q00961); ion current, whole-cell patch clamp; HEK293T cells, transfected; 10 µM, added: 1 mM glutamate for 10 ms plus 100 µM glycine).
For `Fc1cccc2c(Nc3ccncc3)cccc12`, receptor internalization read “no effect” (ADRA2A (Homo sapiens, UniProt P08913); plasma membrane loss, BRET rGFP-CAAX biosensor).
With `O=C(N/N=C/c1cc([N+](=O)[O-])ccc1O)c1ccc(O)cc1O` the maximum inhibition was 49% (PHGDH (Homo sapiens, UniProt O43175, R135A); enzyme activity, inhibitor; R134A mutant).
`CC#C/C(=N\OC[C@H]1COCCN1)c1ccc2ncnc(Nc3ccc(OCc4cccc(F)c4)c(Cl)c3)c2c1` gave an inhibition of -4.2% (MAPK1 (Homo sapiens, UniProt P28482); kinase activity; 10 µM).
With `CCCN1CCN(c2ccc3c(c2)C2CC3CCN2C(=O)OCc2ccccc2)CC1` (stereo not drawn) the Ki was 2080 nM (SLC6A3 (Homo sapiens, UniProt Q01959); binding, radioligand binding).
`CSc1nc(Cl)cc(Sc2nnc(-c3cc(C(F)(F)F)cc(C(F)(F)F)c3)[nH]2)n1` has a CFU reduction of roughly 4 log units (Escherichia coli; NR698; 25 µM, 2 h, 37 °C, no membrane permeabilizer).
`CCN(CC)C(=O)Oc1ccc(C(=O)Nc2cccc3cc[nH]c23)cc1` has a current response of 107 ± 2.8% (GABA-A receptor; alpha-1/beta-2/gamma-2 (Homo sapiens, UniProt P14867+P18507+P47870); modulator, two-electrode voltage clamp; Xenopus oocytes; 20 µM, added: 20 µM GABA; reference: agonist alone).
`O=C(NOCC1CC1)c1cc(Br)c(F)c(F)c1Nc1ccc(I)cc1Cl` gave an efficacy of -53.6 ± 17.4% (Cholinesterase (BCHE, Homo sapiens, UniProt P06276); enzyme activity, fluorescence).

Repeated from above:
Under “total amount delivered”, `C[C@H](Cc1ccc(O)c(O)c1)[C@@H](C)Cc1ccc(O)c(O)c1` is recorded as 14.8 ± 2.36 µg (human skin; 3% w/v solution, 8 h, no UV exposure).
